Assay results gathered from unrelated publications.
Lines come from different studies, so protocols differ. “And” joins repeats or separate records; there may be more than shown. Numbers after ± are the reported error.
Hypoxanthine-guanine-xanthine phosphoribosyltransferase: Hypoxanthine-guanine-xanthine phosphoribosyltransferase (Plasmodium falciparum, UniProt P20035)
Chain of UniProt P20035 (whole entry, looked up): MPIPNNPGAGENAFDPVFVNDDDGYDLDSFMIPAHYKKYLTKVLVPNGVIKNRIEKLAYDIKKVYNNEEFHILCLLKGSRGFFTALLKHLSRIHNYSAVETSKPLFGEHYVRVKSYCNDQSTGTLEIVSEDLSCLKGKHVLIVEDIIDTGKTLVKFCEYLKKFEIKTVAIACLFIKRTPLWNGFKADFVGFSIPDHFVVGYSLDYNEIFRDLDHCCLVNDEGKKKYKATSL
CHRM4: Muscarinic acetylcholine receptor M4 (CHRM4, Homo sapiens, UniProt P08173)
Chain of UniProt P08173 (whole entry, looked up): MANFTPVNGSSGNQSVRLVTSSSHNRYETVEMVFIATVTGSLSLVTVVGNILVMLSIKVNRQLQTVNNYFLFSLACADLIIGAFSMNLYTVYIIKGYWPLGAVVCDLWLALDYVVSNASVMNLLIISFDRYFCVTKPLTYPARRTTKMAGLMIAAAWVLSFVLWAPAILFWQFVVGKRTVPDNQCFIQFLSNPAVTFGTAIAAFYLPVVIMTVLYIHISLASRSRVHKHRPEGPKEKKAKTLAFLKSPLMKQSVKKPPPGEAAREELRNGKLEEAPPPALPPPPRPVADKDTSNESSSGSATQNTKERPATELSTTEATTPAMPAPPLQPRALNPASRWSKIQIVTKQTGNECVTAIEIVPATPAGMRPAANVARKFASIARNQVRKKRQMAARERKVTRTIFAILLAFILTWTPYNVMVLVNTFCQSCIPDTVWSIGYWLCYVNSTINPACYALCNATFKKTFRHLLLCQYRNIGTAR
FUT6: 4-galactosyl-N-acetylglucosaminide 3-alpha-L-fucosyltransferase FUT6 (FUT6, Homo sapiens, UniProt P51993)
Chain of UniProt P51993 (whole entry, looked up): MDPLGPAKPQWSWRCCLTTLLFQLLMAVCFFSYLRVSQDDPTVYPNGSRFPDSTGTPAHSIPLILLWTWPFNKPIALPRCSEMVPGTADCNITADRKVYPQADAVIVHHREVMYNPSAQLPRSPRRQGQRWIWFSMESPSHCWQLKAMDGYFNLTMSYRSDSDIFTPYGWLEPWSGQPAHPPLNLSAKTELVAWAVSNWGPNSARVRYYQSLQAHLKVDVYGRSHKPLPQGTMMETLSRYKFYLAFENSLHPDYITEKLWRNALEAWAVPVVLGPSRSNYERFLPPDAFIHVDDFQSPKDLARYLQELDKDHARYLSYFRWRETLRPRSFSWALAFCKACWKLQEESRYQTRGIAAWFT
Beta-lactamase CTX-M-14: Beta-lactamase CTX-M-14 (Escherichia coli, UniProt Q9L5C7)
5-hydroxytryptamine receptor 2A: 5-hydroxytryptamine receptor 2A (Rattus norvegicus, UniProt P14842)
Chain of UniProt P14842 (whole entry, looked up): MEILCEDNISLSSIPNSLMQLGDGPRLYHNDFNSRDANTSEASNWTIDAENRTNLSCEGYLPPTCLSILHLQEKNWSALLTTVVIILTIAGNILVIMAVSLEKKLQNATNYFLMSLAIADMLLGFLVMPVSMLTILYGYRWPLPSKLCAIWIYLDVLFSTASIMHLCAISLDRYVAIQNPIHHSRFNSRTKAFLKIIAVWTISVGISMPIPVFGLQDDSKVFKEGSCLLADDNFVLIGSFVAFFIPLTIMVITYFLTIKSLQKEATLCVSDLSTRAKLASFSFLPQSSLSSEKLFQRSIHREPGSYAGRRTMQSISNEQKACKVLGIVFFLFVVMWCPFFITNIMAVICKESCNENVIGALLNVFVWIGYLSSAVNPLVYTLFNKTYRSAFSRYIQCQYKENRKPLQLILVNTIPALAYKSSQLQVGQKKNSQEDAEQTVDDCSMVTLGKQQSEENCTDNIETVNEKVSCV
Muscleblind-like protein 1 with (CCUG)6 RNA: Muscleblind-like protein 1, with (CCUG)6 RNA (Homo sapiens, UniProt Q9NR56)
Chain of UniProt Q9NR56 (whole entry, looked up): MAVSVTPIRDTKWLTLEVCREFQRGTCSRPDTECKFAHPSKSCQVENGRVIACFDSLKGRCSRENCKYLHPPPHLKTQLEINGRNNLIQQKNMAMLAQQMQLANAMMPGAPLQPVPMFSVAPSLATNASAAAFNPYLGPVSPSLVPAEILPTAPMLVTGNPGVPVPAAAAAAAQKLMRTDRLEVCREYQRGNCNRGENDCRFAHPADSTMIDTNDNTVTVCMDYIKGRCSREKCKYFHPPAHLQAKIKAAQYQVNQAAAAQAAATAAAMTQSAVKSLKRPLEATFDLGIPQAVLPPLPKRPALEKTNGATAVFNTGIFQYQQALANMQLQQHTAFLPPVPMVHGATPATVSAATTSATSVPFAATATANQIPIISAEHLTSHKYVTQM
MAPK8: Mitogen-activated protein kinase 8 (MAPK8, Homo sapiens, UniProt P45983)
Chain of UniProt P45983 (whole entry, looked up): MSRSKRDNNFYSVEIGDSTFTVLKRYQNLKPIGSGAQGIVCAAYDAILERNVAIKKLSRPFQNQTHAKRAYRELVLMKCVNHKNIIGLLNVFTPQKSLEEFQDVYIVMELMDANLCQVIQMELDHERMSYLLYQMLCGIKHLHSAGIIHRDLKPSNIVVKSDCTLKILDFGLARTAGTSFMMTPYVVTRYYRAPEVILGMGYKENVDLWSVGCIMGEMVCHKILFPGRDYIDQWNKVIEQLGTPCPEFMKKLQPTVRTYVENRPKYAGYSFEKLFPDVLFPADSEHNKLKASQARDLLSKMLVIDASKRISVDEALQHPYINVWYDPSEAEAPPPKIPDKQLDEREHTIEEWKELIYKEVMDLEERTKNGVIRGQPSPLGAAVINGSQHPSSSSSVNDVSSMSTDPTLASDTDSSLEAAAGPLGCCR
Chain of UniProt Q9Y5Z0 (whole entry, looked up): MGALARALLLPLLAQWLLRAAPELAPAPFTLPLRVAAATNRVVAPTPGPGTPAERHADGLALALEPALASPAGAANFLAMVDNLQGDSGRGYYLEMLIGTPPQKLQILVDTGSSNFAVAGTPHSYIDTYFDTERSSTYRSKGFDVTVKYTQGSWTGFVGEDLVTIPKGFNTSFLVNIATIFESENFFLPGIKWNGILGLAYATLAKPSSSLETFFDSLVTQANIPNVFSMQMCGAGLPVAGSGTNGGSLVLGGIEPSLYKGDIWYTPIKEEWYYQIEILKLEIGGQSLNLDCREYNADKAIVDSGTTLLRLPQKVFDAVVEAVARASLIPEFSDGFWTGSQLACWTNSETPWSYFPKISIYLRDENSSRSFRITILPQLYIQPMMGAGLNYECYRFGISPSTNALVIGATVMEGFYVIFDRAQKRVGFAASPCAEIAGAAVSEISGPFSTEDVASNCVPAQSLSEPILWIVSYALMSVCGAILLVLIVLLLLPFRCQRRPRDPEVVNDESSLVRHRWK
Chain of UniProt P56726 (whole entry, looked up): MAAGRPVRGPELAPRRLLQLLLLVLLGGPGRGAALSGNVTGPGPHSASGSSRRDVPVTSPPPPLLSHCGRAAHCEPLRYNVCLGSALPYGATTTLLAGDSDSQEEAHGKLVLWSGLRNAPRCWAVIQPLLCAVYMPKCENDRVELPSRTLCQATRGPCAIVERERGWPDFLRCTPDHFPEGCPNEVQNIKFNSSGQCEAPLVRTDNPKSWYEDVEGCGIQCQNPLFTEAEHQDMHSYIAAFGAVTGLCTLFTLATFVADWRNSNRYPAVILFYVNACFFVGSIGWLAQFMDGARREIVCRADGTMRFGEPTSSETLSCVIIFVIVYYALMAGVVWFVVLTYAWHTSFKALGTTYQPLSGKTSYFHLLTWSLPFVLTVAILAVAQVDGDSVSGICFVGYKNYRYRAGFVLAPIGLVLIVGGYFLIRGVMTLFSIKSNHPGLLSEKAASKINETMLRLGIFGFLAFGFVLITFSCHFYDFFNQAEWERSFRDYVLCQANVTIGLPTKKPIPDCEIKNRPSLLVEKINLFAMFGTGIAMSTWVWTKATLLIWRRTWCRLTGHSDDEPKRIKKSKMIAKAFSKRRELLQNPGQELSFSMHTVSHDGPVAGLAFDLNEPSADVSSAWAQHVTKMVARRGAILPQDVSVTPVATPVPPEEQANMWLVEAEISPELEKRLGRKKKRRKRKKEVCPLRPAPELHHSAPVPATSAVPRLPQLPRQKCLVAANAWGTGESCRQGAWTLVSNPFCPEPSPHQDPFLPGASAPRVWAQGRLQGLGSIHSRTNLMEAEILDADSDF
Chain of UniProt Q12884 (whole entry, looked up): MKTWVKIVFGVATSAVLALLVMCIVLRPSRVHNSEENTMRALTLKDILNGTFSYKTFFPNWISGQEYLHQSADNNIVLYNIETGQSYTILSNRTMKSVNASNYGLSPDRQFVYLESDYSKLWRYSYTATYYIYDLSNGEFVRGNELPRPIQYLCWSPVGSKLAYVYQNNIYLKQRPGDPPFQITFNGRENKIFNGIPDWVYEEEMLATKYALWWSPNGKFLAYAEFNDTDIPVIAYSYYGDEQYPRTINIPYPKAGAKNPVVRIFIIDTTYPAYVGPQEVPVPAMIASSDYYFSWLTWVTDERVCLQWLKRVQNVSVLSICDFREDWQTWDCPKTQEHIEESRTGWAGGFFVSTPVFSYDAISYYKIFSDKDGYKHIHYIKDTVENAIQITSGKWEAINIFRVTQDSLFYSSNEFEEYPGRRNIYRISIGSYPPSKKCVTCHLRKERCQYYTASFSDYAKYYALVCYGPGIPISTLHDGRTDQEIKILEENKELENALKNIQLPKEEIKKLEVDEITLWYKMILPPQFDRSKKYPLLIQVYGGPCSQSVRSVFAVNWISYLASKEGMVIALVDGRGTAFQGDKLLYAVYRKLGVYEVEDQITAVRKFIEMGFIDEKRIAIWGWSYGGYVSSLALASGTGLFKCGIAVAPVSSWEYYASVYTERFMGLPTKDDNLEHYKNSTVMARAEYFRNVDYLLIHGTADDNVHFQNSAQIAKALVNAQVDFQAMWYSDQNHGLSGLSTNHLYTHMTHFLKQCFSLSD
Chain of UniProt Q9Y231 (whole entry, looked up): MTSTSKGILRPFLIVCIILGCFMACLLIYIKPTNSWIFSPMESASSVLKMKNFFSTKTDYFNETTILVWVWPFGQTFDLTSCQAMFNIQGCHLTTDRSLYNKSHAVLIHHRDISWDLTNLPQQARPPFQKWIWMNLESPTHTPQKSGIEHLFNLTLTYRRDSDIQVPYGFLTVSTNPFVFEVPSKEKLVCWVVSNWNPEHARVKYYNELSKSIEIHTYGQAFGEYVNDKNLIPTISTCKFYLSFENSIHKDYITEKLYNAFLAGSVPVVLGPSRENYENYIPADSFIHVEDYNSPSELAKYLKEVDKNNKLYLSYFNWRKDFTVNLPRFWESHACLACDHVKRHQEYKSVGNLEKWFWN

Compound | target | assay | system | conditions | Ki
O=c1[nH]cnc2c(CNCC(O)CP(=O)(O)O)c[nH]c12 (stereo not drawn) | Hypoxanthine-guanine-xanthine phosphoribosyltransferase | enzyme activity, inhibitor | – | pH 7.4 | 0.0091 µM
O=C(OC1CCN(CCOCCOCCN2CCC(OC(=O)C(c3ccccc3)c3ccccc3)CC2)CC1)C(c1ccccc1)c1ccccc1 | CHRM4 | ligand displacement, radioligand | – | – | 2.34 µM
N=C(N)NCCC[C@H](NC(=O)[C@@H](N)Cc1ccccc1)C(=O)NCCOCCOCC(=O)N1CCCC1 | Prolyl endopeptidase FAP (FAP, Homo sapiens, UniProt Q12884) | enzyme activity, inhibitor, fluorescence | – | pH 7.5 | > 1000 µM
Nc1nc2c(ncn2[C@@H]2O[C@H](COP(=O)(O)OP(=O)(O)O[C@H]3O[C@@H](CNC(=O)C(c4ccccc4)c4ccccc4)[C@@H](O)[C@@H](O)[C@@H]3F)[C@@H](O)[C@H]2O)c(=O)[nH]1 | FUT6 | enzyme activity, inhibitor | – | – | 8 µM
O=C(Nc1cccc(-c2nn[nH]n2)c1)c1cc(-c2cncnc2)cc(C(F)(F)F)c1 | Beta-lactamase CTX-M-14 | enzyme activity, inhibitor, absorbance | – | pH 7 | 53.8 µM
c1cc(N2CCN(CCCOc3ccc(CN4CCCCC4)cc3)CC2)c2ccsc2c1 | 5-hydroxytryptamine receptor 2A | cell-free assay | – | – | 0.206 µM
NCc1cc(C(=O)NCCN2CCN(CCCCC3CCN(CCCN4C(=O)CCc5ccccc54)CC3)CC2)cc(C(=O)NCCN2CCN(CCCCC3CCN(CC(=O)N4c5ccccc5NC(=O)c5ccccc54)CC3)CC2)c1 | CHRM4 | ligand displacement, radioligand | – | – | 0.00407 µM
COc1ccc2nc3cc(Cl)ccc3c(NCCCCc3c(N)nc(N)nc3N)c2c1 | Muscleblind-like protein 1 with (CCUG)6 RNA | MBNL1-RNA binding, gel mobility shift | – | no tRNA, with: (CCUG)6 RNA, 350 nM MBNL1 | 2.5 ± 0.2 µM
OCC1OC(Oc2ccc(C=Cc3cc(O)cc(O)c3)cc2)C(O)C(O)C1O (stereo not drawn) | Xanthine dehydrogenase/oxidase (XDH, Bos taurus, UniProt P80457) | uric acid formation, inhibitor | – | pH 10.0, 25 °C, with: xanthine | 7 ± 0.8 µM
COC(=O)C1(C)C=C(C(=O)OCc2ccccc2)C(=O)CC1 (stereo not drawn) | MAPK8 | ligand displacement, FP | – | – | 4 µM
Cc1ccccc1-c1cc(N2CCN(Cc3ccccc3)CC2)ccc1N(C)C(=O)C(C)(C)c1cc(C(F)(F)F)cc(C(F)(F)F)c1 | Substance-P receptor (TACR1, Homo sapiens, UniProt P25103) | cell-free assay | – | pH 7.4 | 0.11 µM
Cc1cc(CN2CCCC2)ccc1OCCCN1CCN(c2cccc3sccc23)CC1 | 5-hydroxytryptamine receptor 2A | cell-free assay | – | – | 0.206 µM
Nc1nc2c(ncn2[C@@H]2O[C@H](COP(=O)(O)OP(=O)(O)O[C@H]3O[C@@H](CNC(=O)CCc4ccccc4)[C@@H](O)[C@@H](O)[C@@H]3F)[C@@H](O)[C@H]2O)c(=O)[nH]1 | 4-galactosyl-N-acetylglucosaminide 3-alpha-L-fucosyltransferase 9 (FUT9, Homo sapiens, UniProt Q9Y231) | enzyme activity, inhibitor | – | – | 7.8 µM
CC(=O)N[C@@H](CC(C)C)C(=O)N[C@@H](CC(=O)O)C(=O)N[C@H](C(=O)N1CCC[C@H]1C(=O)N[C@H](C=O)CC(=O)O)C(C)C | Caspase-1 (CASP1, Homo sapiens, UniProt P29466) | enzyme activity, inhibitor, fluorescence | – | pH 7 | 0.0501 µM
COc1ccc(CN(C(=O)c2sc3ccccc3c2Cl)C2CCC(N)CC2)cc1-c1ccc(C#N)cc1 (stereo not drawn) | Protein smoothened (Smo, Mus musculus, UniProt P56726) | ligand displacement, radioligand | – | cell membranes | 0.096 µM
Cc1cc(CN2CCOCC2)ccc1OCCCN1CCN(c2cccc3sccc23)CC1 | 5-hydroxytryptamine receptor 2A | cell-free assay | – | – | 0.0124 µM
Nc1nc2c(ncn2[C@@H]2O[C@H](COP(=O)(O)OP(=O)(O)O[C@H]3O[C@@H](CNC(=O)C(c4ccccc4)C4CCCCC4)[C@@H](O)[C@@H](O)[C@@H]3F)[C@@H](O)[C@H]2O)c(=O)[nH]1 (stereo partly drawn) | FUT6 | enzyme activity, inhibitor | – | – | 3.4 µM
O=C(Nc1cccc(-c2nn[nH]n2)c1)c1cc(-c2ccoc2)cc(C(F)(F)F)c1 | Beta-lactamase CTX-M-14 | enzyme activity, inhibitor, absorbance | – | pH 7 | 17.4 µM
CN(C)CCNC(=O)c1cccc2c(NCCCCc3c(N)nc(N)nc3N)c3ccccc3nc12 | Muscleblind-like protein 1 with (CCUG)6 RNA | MBNL1-RNA binding, gel mobility shift | – | 100 nM tRNA, with: (CCUG)6 RNA, 350 nM MBNL1 | 2.8 µM and 3 µM
CCCCOc1ccc(C(=O)OCC[N+]2(C)CC=CCC2)cc1 (stereo not drawn) | CHRM4 | ligand displacement, radioligand | – | cell membranes | 7.76 µM
O=C(O)c1cccc(-c2ccccc2O[C@@H]2O[C@H](CO)[C@H](O)[C@H](O)[C@H]2O)c1 | Adhesin FmlH, lectin domain (Escherichia coli, UniProt Q1RBS0) | inhibitor, competitive bio-layer interferometry | UPEC UTI89 | with: immobilized Ser-TF | 2.1 µM
C[C@@H]1O[C@H](OP(=O)(O)OP(=O)(O)OC[C@H]2O[C@@H](n3cnc4c(=O)[nH]c(N)nc43)[C@H](O)[C@@H]2O)[C@@H](F)[C@H](O)[C@@H]1O | FUT6 | enzyme activity, inhibitor | – | – | 26.3 µM
O=C(Nc1cccc(-c2nn[nH]n2)c1)c1cc(-c2ncc[nH]2)cc(C(F)(F)F)c1 | Beta-lactamase CTX-M-14 | enzyme activity, inhibitor, absorbance | – | pH 7 | 16.9 µM
O=c1[nH]c(O)nc2c([C@@H]3N[C@H](COP(=O)(O)O)[C@@H](O)[C@H]3O)c[nH]c12 | Hypoxanthine-guanine-xanthine phosphoribosyltransferase | enzyme activity, inhibitor | – | pH 7.4 | > 100 µM
C[C@H](CCC(=O)O)[C@H]1CC[C@H]2[C@@H]3[C@H](O)C[C@H]4C[C@H](OC(=O)CCC(=O)O)CC[C@]4(C)[C@H]3CC[C@]12C | Hepatic sodium/bile acid cotransporter (SLC10A1, Homo sapiens, UniProt Q14973) | transporter uptake, inhibitor, radiometric | – | – | 10.7 µM
O=C(Nc1cccc(-c2nn[nH]n2)c1)c1cc(-c2ccsc2)cc(C(F)(F)F)c1 | Beta-lactamase CTX-M-14 | enzyme activity, inhibitor, absorbance | – | pH 7 | 31.1 µM
COC(=O)[C@@]1(C)C=C(C(=O)OC(C)(C)C)C(=O)CC1 | MAPK8 | ligand displacement, FP | – | – | 23.6 µM
CC(C)Oc1cccc(NC(=O)CCCN2C(=O)c3ccccc3C2=O)c1 | Indole-3-acetic acid-amido synthetase GH3.17 (GH3.17, Arabidopsis thaliana, UniProt Q9FZ87) | IAA-Glu formation, inhibitor | – | with: IAA substrate | 0.00034 µM
CCC(=O)NC1CN(CCCCC2CCN(CC(=O)N3c4ccccc4NC(=O)c4ccccc43)CC2)CCN(CC(=O)N2CCC(N3CCC(n4c(=O)[nH]c5ccccc54)CC3)CC2)C1 (stereo not drawn) | CHRM4 | ligand displacement, radioligand | – | – | 0.00794 µM
COc1cccc(CNC[C@@H](O)[C@H](Cc2ccccc2)NC(=O)c2cc(C)cc(C(=O)N(C)[C@H](C)c3ccccc3)c2)c1 | Beta-secretase 2 (BACE2, Homo sapiens, UniProt Q9Y5Z0) | – | – | – | 0.014 ± 0.0066 µM

Some of these lines once more:
Compound | target | assay | system | conditions | Ki
C[C@@H]1O[C@H](OP(=O)(O)OP(=O)(O)OC[C@H]2O[C@@H](n3cnc4c(=O)[nH]c(N)nc43)[C@H](O)[C@@H]2O)[C@@H](F)[C@H](O)[C@@H]1O | FUT6 | enzyme activity, inhibitor | – | – | 26.3 µM
O=C(O)c1cccc(-c2ccccc2O[C@@H]2O[C@H](CO)[C@H](O)[C@H](O)[C@H]2O)c1 | Adhesin FmlH, lectin domain (Escherichia coli, UniProt Q1RBS0) | inhibitor, competitive bio-layer interferometry | UPEC UTI89 | with: immobilized Ser-TF | 2.1 µM
Cc1cc(CN2CCCC2)ccc1OCCCN1CCN(c2cccc3sccc23)CC1 | 5-hydroxytryptamine receptor 2A | cell-free assay | – | – | 0.206 µM
COc1cccc(CNC[C@@H](O)[C@H](Cc2ccccc2)NC(=O)c2cc(C)cc(C(=O)N(C)[C@H](C)c3ccccc3)c2)c1 | Beta-secretase 2 (BACE2, Homo sapiens, UniProt Q9Y5Z0) | – | – | – | 0.014 ± 0.0066 µM
c1cc(N2CCN(CCCOc3ccc(CN4CCCCC4)cc3)CC2)c2ccsc2c1 | 5-hydroxytryptamine receptor 2A | cell-free assay | – | – | 0.206 µM
